Measurements collected from several papers.
Lines come from different studies, so protocols differ. Numbers after ± are the reported error. The star is where a group is joined.
Ryanodine receptor 1: Ryanodine receptor 1 (Oncorhynchus mykiss, UniProt A0A8C7UX14)
BCHE: Cholinesterase (BCHE, Homo sapiens, UniProt P06276)
Sequence of UniProt P06276 (whole entry, looked up): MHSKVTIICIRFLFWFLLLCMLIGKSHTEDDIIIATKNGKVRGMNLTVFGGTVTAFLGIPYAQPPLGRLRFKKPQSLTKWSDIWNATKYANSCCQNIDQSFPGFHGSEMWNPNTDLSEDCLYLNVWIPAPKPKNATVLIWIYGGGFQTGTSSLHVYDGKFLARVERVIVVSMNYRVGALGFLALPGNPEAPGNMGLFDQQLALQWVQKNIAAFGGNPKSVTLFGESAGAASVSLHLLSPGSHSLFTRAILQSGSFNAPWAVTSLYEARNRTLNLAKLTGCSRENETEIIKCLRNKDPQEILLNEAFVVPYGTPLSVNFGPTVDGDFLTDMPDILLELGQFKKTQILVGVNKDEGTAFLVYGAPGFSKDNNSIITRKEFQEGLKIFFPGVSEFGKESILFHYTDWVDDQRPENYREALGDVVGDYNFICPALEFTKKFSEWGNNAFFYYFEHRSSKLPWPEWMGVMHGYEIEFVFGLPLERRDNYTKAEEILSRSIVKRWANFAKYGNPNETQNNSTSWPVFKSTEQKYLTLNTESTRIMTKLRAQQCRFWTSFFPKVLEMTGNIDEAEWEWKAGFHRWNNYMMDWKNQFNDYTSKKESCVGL
CNR1: Cannabinoid receptor 1 (CNR1, Homo sapiens, UniProt P21554)
Sequence of UniProt P62813 (whole entry, unmodified, looked up): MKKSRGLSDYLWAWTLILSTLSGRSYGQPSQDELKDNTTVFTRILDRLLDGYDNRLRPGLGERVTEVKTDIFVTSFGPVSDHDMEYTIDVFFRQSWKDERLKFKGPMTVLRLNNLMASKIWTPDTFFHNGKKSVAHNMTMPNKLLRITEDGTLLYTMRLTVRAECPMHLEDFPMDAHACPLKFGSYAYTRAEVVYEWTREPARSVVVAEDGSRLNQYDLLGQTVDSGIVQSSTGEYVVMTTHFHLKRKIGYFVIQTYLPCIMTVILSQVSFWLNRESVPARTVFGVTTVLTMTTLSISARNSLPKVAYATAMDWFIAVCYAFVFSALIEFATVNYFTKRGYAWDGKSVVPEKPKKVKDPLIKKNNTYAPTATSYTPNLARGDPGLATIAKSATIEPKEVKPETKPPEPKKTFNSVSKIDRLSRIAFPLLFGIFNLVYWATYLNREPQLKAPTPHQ
Sequence of UniProt P18508 (whole entry, unmodified, looked up): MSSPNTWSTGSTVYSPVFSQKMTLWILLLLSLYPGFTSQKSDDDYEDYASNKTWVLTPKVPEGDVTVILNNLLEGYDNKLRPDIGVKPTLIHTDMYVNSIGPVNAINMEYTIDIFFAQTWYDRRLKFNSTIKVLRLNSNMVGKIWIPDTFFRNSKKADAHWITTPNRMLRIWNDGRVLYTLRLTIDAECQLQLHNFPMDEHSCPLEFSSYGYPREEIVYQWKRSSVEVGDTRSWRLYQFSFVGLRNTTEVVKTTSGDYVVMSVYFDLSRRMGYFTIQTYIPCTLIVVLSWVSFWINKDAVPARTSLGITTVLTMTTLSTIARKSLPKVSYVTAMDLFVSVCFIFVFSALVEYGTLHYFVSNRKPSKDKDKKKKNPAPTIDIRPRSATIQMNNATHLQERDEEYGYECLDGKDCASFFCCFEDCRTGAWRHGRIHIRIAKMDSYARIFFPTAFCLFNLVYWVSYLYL
Sequence of UniProt P21554 (whole entry, looked up): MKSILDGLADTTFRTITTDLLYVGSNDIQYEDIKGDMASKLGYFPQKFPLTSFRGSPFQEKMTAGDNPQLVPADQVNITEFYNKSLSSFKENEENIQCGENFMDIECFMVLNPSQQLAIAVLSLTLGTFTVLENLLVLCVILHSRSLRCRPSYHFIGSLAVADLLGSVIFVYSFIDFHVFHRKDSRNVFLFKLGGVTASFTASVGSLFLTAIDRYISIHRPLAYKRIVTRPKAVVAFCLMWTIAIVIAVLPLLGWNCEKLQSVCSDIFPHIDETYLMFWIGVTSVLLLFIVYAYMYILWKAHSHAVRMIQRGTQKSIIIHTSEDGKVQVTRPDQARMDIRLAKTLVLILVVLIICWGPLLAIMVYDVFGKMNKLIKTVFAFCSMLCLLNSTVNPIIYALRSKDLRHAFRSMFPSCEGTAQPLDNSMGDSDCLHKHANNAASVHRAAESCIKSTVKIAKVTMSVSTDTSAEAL
Sequence of UniProt P02920 (whole entry, unmodified, looked up): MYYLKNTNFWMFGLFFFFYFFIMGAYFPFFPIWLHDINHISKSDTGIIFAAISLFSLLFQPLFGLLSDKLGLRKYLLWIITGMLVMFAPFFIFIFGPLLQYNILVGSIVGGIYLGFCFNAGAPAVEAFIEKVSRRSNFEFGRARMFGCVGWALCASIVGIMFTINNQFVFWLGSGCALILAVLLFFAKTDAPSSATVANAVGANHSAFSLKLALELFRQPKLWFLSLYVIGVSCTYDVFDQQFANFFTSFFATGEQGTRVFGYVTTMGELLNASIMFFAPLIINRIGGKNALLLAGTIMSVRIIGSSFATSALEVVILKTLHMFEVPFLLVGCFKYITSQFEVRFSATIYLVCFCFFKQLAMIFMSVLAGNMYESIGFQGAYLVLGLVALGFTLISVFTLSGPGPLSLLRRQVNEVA
Sequence of UniProt P47870 (whole entry, unmodified, looked up): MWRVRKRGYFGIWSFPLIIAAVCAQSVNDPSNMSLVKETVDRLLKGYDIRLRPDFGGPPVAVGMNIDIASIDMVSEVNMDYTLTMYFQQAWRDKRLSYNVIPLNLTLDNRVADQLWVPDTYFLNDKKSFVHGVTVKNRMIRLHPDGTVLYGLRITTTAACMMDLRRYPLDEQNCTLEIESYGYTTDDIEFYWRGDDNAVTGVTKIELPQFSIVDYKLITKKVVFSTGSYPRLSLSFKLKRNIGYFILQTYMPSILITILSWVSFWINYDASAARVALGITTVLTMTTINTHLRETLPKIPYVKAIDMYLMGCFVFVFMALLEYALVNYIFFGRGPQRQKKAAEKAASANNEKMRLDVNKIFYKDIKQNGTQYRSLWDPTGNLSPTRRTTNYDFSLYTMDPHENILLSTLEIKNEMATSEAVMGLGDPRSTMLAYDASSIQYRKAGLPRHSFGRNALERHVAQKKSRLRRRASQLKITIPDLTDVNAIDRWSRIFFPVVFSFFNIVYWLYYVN
Sequence of UniProt Q97W02 (whole entry, looked up): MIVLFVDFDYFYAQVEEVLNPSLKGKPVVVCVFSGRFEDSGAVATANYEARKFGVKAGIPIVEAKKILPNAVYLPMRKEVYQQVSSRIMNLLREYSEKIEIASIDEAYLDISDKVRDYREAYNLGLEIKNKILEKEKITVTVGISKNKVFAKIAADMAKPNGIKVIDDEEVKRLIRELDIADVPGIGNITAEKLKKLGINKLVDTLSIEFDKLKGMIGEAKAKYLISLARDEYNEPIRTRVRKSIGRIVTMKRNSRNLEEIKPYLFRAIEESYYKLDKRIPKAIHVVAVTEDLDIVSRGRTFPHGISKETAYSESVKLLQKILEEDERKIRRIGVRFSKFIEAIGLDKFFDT
Sequence of UniProt Q8NKB0 (whole entry, looked up): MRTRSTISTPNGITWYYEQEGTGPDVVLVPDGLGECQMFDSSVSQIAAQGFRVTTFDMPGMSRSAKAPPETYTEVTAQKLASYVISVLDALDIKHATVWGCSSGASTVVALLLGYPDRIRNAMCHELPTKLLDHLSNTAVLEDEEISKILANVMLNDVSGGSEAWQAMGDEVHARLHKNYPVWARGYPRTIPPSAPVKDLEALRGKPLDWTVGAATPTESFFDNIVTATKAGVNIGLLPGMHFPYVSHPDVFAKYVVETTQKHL

anthraquinone-neomycin — binding enthalpy (poly(dA)•2poly(dT) triplex DNA; isothermal titration calorimetry; concentration not given, pH 5.5, 20 °C, KCl 150 mM): -6.4 ± 0.1 kcal/mol
Nc1ccn([C@H]2C[C@H](O)[C@@H](COP(=O)(O)OP(=O)(O)OP(=O)(O)O)O2)c(=O)n1 — misincorporation frequency (DNA polymerase IV, with DNA (dbh, Saccharolobus solfataricus, UniProt Q97W02); nucleotide incorporation opposite dC, single-turnover extension of lesion bypass product; lesion bypass extension, with: 21/26-mer dG-C8-N-ABA primer-template): 10.3%
COc1cc2c3c(c1OC)Oc1ccc(cc1)C[C@@H]1c4c(cc(OC)c(OC)c4Oc4ccc(cc4)C[C@H]3N(C)CC2)CCN1C — retention factor (Heat shock protein HSP 90-alpha, C-terminal domain (HSP90AA1, Homo sapiens, UniProt P07900); binding, zonal affinity chromatography; pH 7.4, 25 °C): 8.37
CC(C)CCCc1ccc2cc(C(=O)O)ccc2c1 — potentiation (Glutamate NMDA receptor; Grin1/Grin2b (Grin1/Grin2b, Rattus norvegicus, UniProt P35439+Q00960); decreased, potentiator, two-electrode voltage clamp; Xenopus oocytes; 50 µM, 30 min, with: alkaline phosphatase injection, pregnenolone sulfate 100 µM; relative to: water injection): decreased
C=C1[C@@H](C)[C@H]2[C@H](Cc3ccccc3)NC(=O)[C@]23[C@H](OC(C)=O)/C=C/[C@@](C)(O)C(=O)[C@@H](C)C/C=C/[C@H]3[C@@H]1O — bound fibrinogen fluorescence (integrin alphaM beta2 (human); ligand binding, inhibitor, flow cytometry; human neutrophils; concentration not given, 1 h, 37 °C, integrin clustering inhibitor, with: Alexa 488-labelled fibrinogen; relative to: no inhibitor, lower means less binding): 476 ± 50 MFI
CN(C)C1(CNC(=O)c2ccc3c(c2)CCN3C(=O)c2ccccc2)CCOCC1 — off-target binding (GABAA, H1, adenosine, adrenergic, muscarinic receptors; Cerep panel; 1×10-5 M): inactive
O=[N+]([O-])c1ccc(O[C@H]2O[C@H](CO)[C@H](O)[C@H](O)[C@H]2O)cc1 — reverse rate constant (lacY (Escherichia coli, UniProt P02920, H35C/N245C); cytoplasmic cavity closing; DDM; Cu2+ cross-linked): 254 ± 67 s⁻¹
CCOC(=O)c1ncn2c1CN(C)C(=O)c1cc(F)ccc1-2 — modulation (GABA-A receptor; alpha-1/beta-2/gamma-2 (Rattus norvegicus, UniProt P18508+P62813+P63138, R158C); GABA-evoked current, antagonist, two-electrode voltage clamp; Xenopus oocytes; 1 µM, with: flurazepam 10 µM or DMCM 1 µM): decreased
CCCCSS(C)(=O)=O — GABA current change (Gabrg2/GABRB2/Gabra1 (Rattus norvegicus, UniProt P18508+P47870+P62813, C260A/C282A/C312A/C319A/C341A); two-electrode voltage clamp; Xenopus oocytes; 0.5 mM, applied without GABA, with: GABA EC10; relative to: before labelling): no effect
CC(=O)OC[C@H]1O[C@@H]([S-])[C@H](OC(C)=O)[C@@H](OC(C)=O)[C@@H]1OC(C)=O.CCP(CC)CC.[Au+] — receptor occupancy reduction (Recombining binding protein suppressor of hairless, DNA-bound (Homo sapiens, UniProt Q06330); ChIP-qPCR; NICD-transfected HEK-293T; 2.5 µM, 24 h, RBPJ sites of reporter): 50%
O=c1[nH]cnc2c1ncn2[C@@H]1O[C@@H]2COP(=O)(O)O[C@H]3[C@@H](O)[C@H](n4cnc5c(=O)[nH]cnc54)O[C@@H]3COP(=O)(O)O[C@H]2[C@H]1O — degradation rate (gdpP, residues 84-659 (Bacillus subtilis, UniProt P37484); substrate, HPLC; 100 µM, 37 °C, upper limit if undegraded 24 h, with: enzyme 1 µM): ≤ 0.001 mol/min/mol enzyme
CC1N=C(c2ccccc2F)c2cc(Nc3ccc(Cl)cc3)ccc2NC1=O (stereo not shown) — inhibition (ADRA2C (Homo sapiens, UniProt P18825); ligand displacement, radioligand; 10 µM): 88%
CC(C)[C@@H](CN1CCN(c2cccc(O)c2)[C@@H](C)C1)NC(=O)c1ccc(Oc2cccc(F)c2)cc1 — Ke (OPRD1 (Homo sapiens, UniProt P41143); antagonist; CHO; with: DPDPE): 173 ± 5 nM
C[C@H]1CCCC(=O)CCC/C=C/c2cc(O)cc(O)c2C(=O)O1 — Km (zhd101 (Clonostachys rosea, UniProt Q8NKB0); substrate, HPLC; 10 min, pH 5.5, 37 °C, 1% acetonitrile): 28.2 ± 3.18 mM
Clc1cccc(-c2cccc(Cl)c2Cl)c1 — EC20 (Ryanodine receptor 1; [3H]ryanodine binding; rainbow trout, skeletal muscle microsomes): 79.3 µM
CN1CC[C@@]2(C)c3cc(OC(=O)Nc4ccccc4)ccc3N(C)[C@@H]12 — decarbamoylation rate constant k3 (BCHE; inhibitor, immobilized enzyme reactor, HPLC-UV; immobilized recombinant human enzyme; 30 °C, after near-complete inhibition): 2.59 ± 0.042 h⁻¹
CCCCCCCCCCC[C@@H](C[C@@H]1OC(=O)[C@H]1CCCCCC)OC(=O)[C@H](CC(C)C)NC=O — PS lipase activity (Phosphatidylserine lipase ABHD16A (Homo sapiens, UniProt O95870); enzyme activity, inhibitor; transfected HEK293T membrane proteome; 20 µM, 30 min): inhibited
CCCCCCC(C)(C)c1ccc([C@@H]2C[C@H](O)CC[C@H]2CCCO)c(O)c1 — maximal response (RORA (Homo sapiens, UniProt P35398); AlphaScreen; relative to: 25 µM 7α-hydroxycholesterol): 108%
Clc1ccc(Cl)c(-c2c(Cl)ccc(Cl)c2Cl)c1Cl — Emax (Ryanodine receptor 1; [3H]ryanodine binding; rainbow trout, skeletal muscle microsomes; up to 20 µM; relative to: DMSO): 269 ± 7.03%
CN1c2ccc(OC(=O)NCCCCCCN3CCOC(CF)C3)cc2CN2CCc3ccccc3C21 (racemic) — KI (inactivation) (BCHE; enzyme activity, inhibitor, Ellman): 200 nM
Ac-QDEVD-pNA (N-acetyl, C-pNA; pNA = O=[N+]([O-])c1ccc(N*)cc1) — kcat (Caspase-8 (CASP8, Homo sapiens, UniProt Q14790); substrate hydrolysis, substrate, colorimetric; pH 7.5): 11 ± 1 min⁻¹
CC(C)(NC(=O)c1nn(Cc2ccc(F)cc2)c2ccccc12)C1CCN(C(N)=O)CC1 — Emax (CNR1; calcium mobilization, agonist; CHO-K1 expressing Gαq16; relative to: CP55,940 maximum): 70 ± 1%
O=S(=O)(c1cccc2c1OCCC2)N1CC(c2nc(-c3ccc(F)cc3)no2)C1 — activity (Calcium-activated potassium channel subunit alpha-1, with beta-3 subunit (KCNMA1, Homo sapiens, UniProt Q12791); HEK293; 30 µM): inactive
Clc1ccc(Cl)c(-c2cccc(Cl)c2Cl)c1 — EC20 (Ryanodine receptor 1; [3H]ryanodine binding; rainbow trout, skeletal muscle microsomes): 5.35 µM
Nc1ncnc2c1nc(Br)n2[C@@H]1O[C@@H]2COP(O)(=S)O[C@H]2[C@H]1O (stereo partly shown) — selectivity ratio (cAMP-dependent protein kinase type II-beta regulatory subunit, holoenzyme with catalytic subunit (Prkar2b, Rattus norvegicus, UniProt P12369, S112A); PKA holoenzyme activation, activator, fluorescence anisotropy; relative to: RIIβ over RIα, higher = RIIβ-selective): 3.1
N=C(N)NCC(=O)NCC1(Nc2ccccc2)CCN(Cc2ccccc2)CC1 — highest concentration inactive (Neuropeptide FF receptor 2 (Homo sapiens, UniProt Q9Y5X5); receptor activation, agonist): ≤ 1 µM
NC(=O)C1=CN([C@@H]2O[C@H](COP(=O)(O)OP(=O)(O)OC[C@H]3O[C@@H](n4cnc5c(N)ncnc54)[C@H](O)[C@@H]3O)[C@@H](O)[C@H]2O)C=CC1 — active-site occupancy (S-adenosylhomocysteine hydrolase Trypanosoma cruzi K431A; concentration not given, enzyme as isolated; detection limit): < 0.1%
ganglioside GT1b — NMR signal reduction (Major capsid protein VP1 (BK polyomavirus, UniProt P03088); binding, 1H-NMR line broadening, refers to: NH-acetyl protons; 80 µM, pH 7.9-8.0, 298 K, with: protein 8 µM): 65.5%
CC(C)(NC(=O)c1nn(CCC2CCCC2)c2ccccc12)c1cccc(C(N)=O)c1 — Emax (CNR1; calcium mobilization, agonist; CHO-K1 expressing Gαq16; relative to: CP55,940 maximum): 51 ± 1%
O=[N+]([O-])c1ccc(OP(=O)(O)Oc2ccc([N+](=O)[O-])cc2)cc1 — remaining activity (Cocaine esterase (CES2, Homo sapiens, UniProt O00748); irreversible inhibitor; 5× IC50 or 200 µM, 1 h, preincubation then inhibitor removal, with: o-nitrophenyl acetate substrate): 99.2%
CC(C)[C@H](NC(=O)[C@H](C)NC(=O)[C@H](CCC(=O)O)NC(=O)[C@H](CCC(=O)O)NC(=O)[C@@H](N)CO)C(=O)N[C@@H](CO)C(=O)N[C@@H](CCC(=O)O)C(=O)N[C@@H](Cc1ccc(O)cc1)C(=O)N[C@@H](CCC(=O)O)C(=O)N[C@@H](C)C(=O)N[C@@H](CO)C(=O)N[C@@H](CCC(=O)O)C(=O)N[C@@H](CC(=O)O)C(=O)N[C@@H](CC(=O)O)C(=O)N[C@H](C(=O)N[C@@H](CO)C(=O)N[C@@H](CC(=O)O)C(=O)N[C@@H](CCC(=O)O)C(=O)N[C@@H](CO)C(=O)N[C@@H](C)C(=O)N[C@@H](Cc1ccccc1)C(=O)N[C@@H](CO)C(=O)N[C@@H](CCC(=O)O)C(=O)N[C@@H](CC(=O)O)C(=O)N[C@@H](CCC(=O)O)C(=O)N[C@@H](CCC(=O)O)C(=O)O)C(C)C — affinity decrease (HTB1/HTA1, H2B residues 30-130 (Saccharomyces cerevisiae, UniProt P02293+P04911); binding, ITC; relative to: wild-type MBD peptide): 6 fold
